Experimental data pooled from the literature.
A part holds a random share of what one study measured.
UniProt P37023, sequence (whole entry, looked up): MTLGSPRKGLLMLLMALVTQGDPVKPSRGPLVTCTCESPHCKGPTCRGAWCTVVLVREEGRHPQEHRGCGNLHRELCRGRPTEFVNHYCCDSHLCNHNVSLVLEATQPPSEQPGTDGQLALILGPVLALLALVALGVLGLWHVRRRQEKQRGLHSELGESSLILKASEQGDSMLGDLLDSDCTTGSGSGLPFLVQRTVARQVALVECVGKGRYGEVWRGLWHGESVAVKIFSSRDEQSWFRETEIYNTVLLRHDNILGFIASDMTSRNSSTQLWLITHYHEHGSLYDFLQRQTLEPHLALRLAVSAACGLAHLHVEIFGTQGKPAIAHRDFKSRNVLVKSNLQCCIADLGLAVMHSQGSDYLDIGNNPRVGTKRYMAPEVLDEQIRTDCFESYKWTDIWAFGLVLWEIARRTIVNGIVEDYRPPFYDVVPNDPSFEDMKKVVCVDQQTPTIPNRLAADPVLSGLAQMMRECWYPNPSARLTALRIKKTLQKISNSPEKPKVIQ
UniProt P49759, sequence (whole entry, looked up): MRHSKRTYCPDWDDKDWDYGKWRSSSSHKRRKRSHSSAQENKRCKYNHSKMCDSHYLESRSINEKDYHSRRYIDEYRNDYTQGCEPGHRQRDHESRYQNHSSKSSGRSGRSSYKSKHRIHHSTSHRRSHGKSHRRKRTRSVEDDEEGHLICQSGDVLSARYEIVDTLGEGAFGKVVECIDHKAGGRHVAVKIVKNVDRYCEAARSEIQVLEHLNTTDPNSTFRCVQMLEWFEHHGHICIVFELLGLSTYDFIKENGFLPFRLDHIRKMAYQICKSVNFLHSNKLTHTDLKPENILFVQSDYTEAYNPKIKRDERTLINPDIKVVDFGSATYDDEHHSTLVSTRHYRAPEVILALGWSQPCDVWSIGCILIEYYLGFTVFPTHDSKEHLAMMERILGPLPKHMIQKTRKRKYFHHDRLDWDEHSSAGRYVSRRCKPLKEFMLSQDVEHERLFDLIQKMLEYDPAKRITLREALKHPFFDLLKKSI
UniProt Q9HBY8, sequence (whole entry, looked up): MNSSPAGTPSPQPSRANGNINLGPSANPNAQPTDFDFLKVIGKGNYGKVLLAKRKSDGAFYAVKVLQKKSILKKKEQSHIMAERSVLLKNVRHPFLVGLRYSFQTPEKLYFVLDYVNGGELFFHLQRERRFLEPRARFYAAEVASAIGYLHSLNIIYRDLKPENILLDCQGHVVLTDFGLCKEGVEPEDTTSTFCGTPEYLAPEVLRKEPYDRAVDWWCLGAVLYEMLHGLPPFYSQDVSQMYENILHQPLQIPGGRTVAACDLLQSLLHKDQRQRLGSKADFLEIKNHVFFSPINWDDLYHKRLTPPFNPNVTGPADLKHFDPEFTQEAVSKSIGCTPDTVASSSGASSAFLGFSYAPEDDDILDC
UniProt P11309, sequence (whole entry, looked up): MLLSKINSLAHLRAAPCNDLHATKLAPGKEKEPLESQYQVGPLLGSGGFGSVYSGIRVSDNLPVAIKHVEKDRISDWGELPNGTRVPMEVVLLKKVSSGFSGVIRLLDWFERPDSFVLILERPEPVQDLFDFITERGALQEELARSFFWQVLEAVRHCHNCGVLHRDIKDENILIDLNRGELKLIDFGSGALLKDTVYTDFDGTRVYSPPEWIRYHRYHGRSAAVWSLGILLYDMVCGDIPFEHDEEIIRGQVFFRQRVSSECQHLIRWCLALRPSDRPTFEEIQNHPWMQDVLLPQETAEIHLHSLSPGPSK
UniProt Q96SB4, sequence (whole entry, looked up): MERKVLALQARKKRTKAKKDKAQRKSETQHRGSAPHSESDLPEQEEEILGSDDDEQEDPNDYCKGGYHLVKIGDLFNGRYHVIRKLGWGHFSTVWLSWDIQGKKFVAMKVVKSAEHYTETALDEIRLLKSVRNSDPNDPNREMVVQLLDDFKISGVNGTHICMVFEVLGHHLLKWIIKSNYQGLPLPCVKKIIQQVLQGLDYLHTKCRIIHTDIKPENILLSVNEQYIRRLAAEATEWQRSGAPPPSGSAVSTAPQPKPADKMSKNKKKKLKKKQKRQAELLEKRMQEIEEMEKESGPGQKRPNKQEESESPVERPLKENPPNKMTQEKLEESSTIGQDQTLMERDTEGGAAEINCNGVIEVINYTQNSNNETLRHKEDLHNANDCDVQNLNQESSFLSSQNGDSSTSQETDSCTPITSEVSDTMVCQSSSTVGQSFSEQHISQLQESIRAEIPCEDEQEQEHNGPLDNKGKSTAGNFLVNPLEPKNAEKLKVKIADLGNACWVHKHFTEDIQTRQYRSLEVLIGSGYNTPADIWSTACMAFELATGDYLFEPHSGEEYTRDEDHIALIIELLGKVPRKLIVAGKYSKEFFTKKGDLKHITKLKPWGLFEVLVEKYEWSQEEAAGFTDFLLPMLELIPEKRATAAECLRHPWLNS
UniProt O96013, sequence (whole entry, looked up): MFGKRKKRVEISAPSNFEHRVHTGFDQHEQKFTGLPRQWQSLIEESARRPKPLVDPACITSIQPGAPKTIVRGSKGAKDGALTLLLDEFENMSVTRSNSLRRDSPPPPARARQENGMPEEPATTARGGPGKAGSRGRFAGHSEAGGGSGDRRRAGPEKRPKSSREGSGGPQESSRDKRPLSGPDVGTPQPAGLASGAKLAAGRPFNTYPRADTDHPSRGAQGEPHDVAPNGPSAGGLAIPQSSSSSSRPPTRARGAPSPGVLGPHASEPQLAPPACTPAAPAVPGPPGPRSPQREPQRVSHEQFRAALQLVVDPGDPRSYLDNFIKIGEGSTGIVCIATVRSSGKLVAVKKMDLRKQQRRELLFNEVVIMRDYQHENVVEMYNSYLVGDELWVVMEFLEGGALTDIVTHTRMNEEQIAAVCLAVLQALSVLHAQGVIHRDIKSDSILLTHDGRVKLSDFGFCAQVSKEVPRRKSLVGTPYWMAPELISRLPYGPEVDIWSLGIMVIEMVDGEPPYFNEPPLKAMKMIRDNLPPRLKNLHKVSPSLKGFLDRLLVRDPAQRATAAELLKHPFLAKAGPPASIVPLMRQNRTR
UniProt Q00535, sequence (whole entry, looked up): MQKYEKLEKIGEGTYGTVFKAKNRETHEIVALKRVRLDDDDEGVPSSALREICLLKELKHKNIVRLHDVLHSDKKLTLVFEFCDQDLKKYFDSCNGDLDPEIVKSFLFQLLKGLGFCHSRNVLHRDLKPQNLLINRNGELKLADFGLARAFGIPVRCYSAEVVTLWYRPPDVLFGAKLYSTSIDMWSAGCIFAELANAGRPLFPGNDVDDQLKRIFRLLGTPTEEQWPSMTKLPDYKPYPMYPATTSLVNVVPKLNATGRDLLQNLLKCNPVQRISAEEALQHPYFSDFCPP
UniProt O60674, sequence (whole entry, looked up): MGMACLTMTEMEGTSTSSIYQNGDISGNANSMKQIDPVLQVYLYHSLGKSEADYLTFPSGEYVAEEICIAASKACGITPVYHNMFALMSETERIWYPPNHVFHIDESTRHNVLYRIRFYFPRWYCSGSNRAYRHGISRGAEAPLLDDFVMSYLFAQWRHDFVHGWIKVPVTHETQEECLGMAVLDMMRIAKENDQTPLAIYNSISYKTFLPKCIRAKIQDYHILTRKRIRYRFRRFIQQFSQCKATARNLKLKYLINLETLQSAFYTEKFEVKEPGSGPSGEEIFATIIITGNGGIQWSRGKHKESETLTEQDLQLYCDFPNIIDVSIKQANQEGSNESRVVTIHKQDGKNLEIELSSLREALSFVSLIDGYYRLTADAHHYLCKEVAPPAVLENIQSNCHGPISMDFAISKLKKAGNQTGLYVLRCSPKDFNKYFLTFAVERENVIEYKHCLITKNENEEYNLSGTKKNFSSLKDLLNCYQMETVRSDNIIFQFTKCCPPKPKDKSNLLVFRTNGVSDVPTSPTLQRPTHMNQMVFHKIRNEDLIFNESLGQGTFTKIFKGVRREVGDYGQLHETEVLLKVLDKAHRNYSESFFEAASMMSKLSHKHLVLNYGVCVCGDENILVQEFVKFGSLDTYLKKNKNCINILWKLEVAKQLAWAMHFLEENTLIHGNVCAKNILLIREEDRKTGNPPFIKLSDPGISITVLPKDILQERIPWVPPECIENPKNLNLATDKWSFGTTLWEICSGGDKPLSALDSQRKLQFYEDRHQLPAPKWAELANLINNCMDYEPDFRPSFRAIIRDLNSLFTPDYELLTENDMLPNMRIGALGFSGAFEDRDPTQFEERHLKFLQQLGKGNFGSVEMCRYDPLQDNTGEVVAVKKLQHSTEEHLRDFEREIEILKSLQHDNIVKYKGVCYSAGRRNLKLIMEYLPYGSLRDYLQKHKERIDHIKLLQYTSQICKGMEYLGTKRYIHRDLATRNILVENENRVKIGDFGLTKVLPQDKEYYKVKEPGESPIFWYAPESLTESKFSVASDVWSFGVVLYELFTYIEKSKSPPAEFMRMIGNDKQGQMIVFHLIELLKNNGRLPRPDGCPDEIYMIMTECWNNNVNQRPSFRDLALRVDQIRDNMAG
UniProt P31645, sequence (whole entry, looked up): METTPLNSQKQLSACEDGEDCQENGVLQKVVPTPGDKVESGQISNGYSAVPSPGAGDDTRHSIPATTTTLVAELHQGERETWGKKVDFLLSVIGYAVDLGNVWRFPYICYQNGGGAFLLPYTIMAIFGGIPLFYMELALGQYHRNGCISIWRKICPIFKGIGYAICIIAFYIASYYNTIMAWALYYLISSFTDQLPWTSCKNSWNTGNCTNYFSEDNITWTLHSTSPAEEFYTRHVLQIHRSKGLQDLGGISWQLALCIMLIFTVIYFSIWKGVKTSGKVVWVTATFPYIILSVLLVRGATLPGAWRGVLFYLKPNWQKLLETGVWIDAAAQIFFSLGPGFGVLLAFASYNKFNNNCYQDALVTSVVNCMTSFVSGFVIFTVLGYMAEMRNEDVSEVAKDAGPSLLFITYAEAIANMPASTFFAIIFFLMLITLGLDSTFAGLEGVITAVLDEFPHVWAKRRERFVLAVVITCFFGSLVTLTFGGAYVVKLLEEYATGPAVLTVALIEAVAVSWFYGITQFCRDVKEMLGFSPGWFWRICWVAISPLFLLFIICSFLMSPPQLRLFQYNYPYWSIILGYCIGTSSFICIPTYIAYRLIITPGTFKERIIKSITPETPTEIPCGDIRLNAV

Study 1
Structure (SMILES): O=C(NS(=O)(=O)c1ccc(NCC2CCOCC2)c([N+](=O)[O-])c1)c1ccc(N2CCN(Cc3ccc(C(F)(F)F)cc3-c3ccc(Cl)cc3)CC2)cc1Oc1cnc2[nH]ccc2c1
Effect on: ligand displacement
Tested at: 10 µM
For Sodium-dependent dopamine transporter (SLC6A3, Homo sapiens, UniProt Q01959): inhibition read -43.4%.
It gave -8.19% for inhibition (Sodium-dependent serotonin transporter (SLC6A4, Homo sapiens, UniProt P31645)).
The inhibition was -21.9% (Sodium-dependent noradrenaline transporter (SLC6A2, Homo sapiens, UniProt P23975)).

Study 2
Cell line: HEK-293T-ACE2-TMPRSS2
Method: cell count
Tested at: concentration not given
The viability of CCC(CC)n1ncc(C)c1NC(=O)c1cc(Cl)ccc1C is reported as 80%.
For O=C(Nc1ccccc1)N1CCc2cc3ccccc3nc21, the viability was 78%.
For O=C(NCc1ccccc1)C1CCCN(C(=O)C2Sc3ccccc3NC2=O)C1 (stereo not drawn), the viability was 74%.
COc1cccc(Oc2ccc(NC(=O)c3cc4cc(Br)ccc4o3)cn2)c1 gave a viability of 76%.
COC(=O)c1sc(S(C)(=O)=O)c(C#N)c1-c1cc(C(C)(C)C)oc1C has a viability of 66%.
Cc1nn(C)c(C)c1CNS(=O)(=O)c1ccc(C(C)C)cc1 has a viability of 74%.
For O=S(=O)(Nc1cccc2nc[nH]c12)c1ccc(Oc2ccccc2)cc1, the viability was 70%.
The viability of COc1cc(/C=C2/CCS(=O)(=O)c3ccccc3C2=O)cc(OC)c1 is reported as 84%.
CCc1cc2c(N3CCCC(C(=O)N4CCN(c5ccccn5)CC4)C3)ncnc2s1 (stereo not drawn) gave a viability of 65%.
With O=S(=O)(Cc1ccccc1F)c1oc(-c2ccc(F)cc2)nc1S(=O)(=O)c1ccccc1 the viability was 98%.
For CCOc1ccc(NC(=O)Cn2ncc(Cl)c(Cl)c2=O)c([N+](=O)[O-])c1, the viability was 220%.
With CC(C)C1CN(C(=O)c2ccc3cccnc3c2O)CCCN1CC1CC1 (stereo not drawn) the viability was 67%.
With CCOC(=O)N1CCN(C(=O)CCc2nnc(CCCc3ccccc3)o2)CC1 the viability was 108%.
Cn1nccc1C(=O)N1CCc2cc(-c3csc(C4CC4)n3)ccc21 has a viability of 76%.

Study 3
Compound: N/C(=N\[N+](=O)[O-])N/N=C\c1ccc(-c2cccc([N+](=O)[O-])c2)o1
Effect on: enzyme activity
Mode: inhibitor
Tested at: 0.5 µM
Relative to: control
Serine/threonine-protein kinase PAK 4 (PAK4, Homo sapiens, UniProt O96013) — remaining activity: 95.3%.
Muscle, skeletal receptor tyrosine-protein kinase (MUSK, Homo sapiens, UniProt O15146) — remaining activity: 94.4%.
For Tyrosine-protein kinase JAK2 (JAK2, Homo sapiens, UniProt O60674): remaining activity read 98.8%.
Ribosomal protein S6 kinase alpha-3 (RPS6KA3, Homo sapiens, UniProt P51812) — remaining activity: 101%.
It gave 94.9% for remaining activity (SRSF protein kinase 1 (SRPK1, Homo sapiens, UniProt Q96SB4)).
For Vascular endothelial growth factor receptor 1 (FLT1, Homo sapiens, UniProt P17948): remaining activity read 97.6%.
For Cyclin-dependent kinase 5, with p35 (CDK5, Homo sapiens, UniProt Q00535): remaining activity read 89.2%.
The remaining activity was 97% (Serine/threonine-protein kinase PAK 5 (PAK5, Homo sapiens, UniProt Q9P286)).
For Tyrosine-protein kinase receptor TYRO3 (TYRO3, Homo sapiens, UniProt Q06418): remaining activity read 91.5%.
For Mitogen-activated protein kinase kinase kinase 20 (MAP3K20, Homo sapiens, UniProt Q9NYL2): remaining activity read 98%.
For Serine/threonine-protein kinase SIK2 (SIK2, Homo sapiens, UniProt Q9H0K1): remaining activity read 91.6%.
The remaining activity was 94.6% (Protein kinase C theta type (PRKCQ, Homo sapiens, UniProt Q04759)).
For Tyrosine-protein kinase JAK1 (JAK1, Homo sapiens, UniProt P23458): remaining activity read 102%.
The remaining activity was 106% (Activin receptor type-1-like (ACVRL1, Homo sapiens, UniProt P37023)).
For Dual specificity protein kinase CLK1 (CLK1, Homo sapiens, UniProt P49759): remaining activity read 105%.
Serine/threonine-protein kinase PAK 1 (PAK1, Homo sapiens, UniProt Q13153) — remaining activity: 91.4%.
The remaining activity was 101% (Serine/threonine-protein kinase Sgk2 (SGK2, Homo sapiens, UniProt Q9HBY8)).
Serine/threonine-protein kinase pim-1 (PIM1, Homo sapiens, UniProt P11309) — remaining activity: 92.9%.

Study 4
Cell line: HEK-293T/ACE2
Tested at: 10 µM
Time: 16 h
Relative to: vehicle
With COC1=CC(=O)C[C@@H](C)[C@]12Oc1c(Cl)c(OC)cc(OC)c1C2=O the viability was 98.8%.
The viability of C[C@]12C=CC(=O)C=C1CC[C@H]1[C@@H]3C[C@@H](O)[C@](O)(C(=O)CO)[C@@]3(C)C[C@H](O)[C@@]12F is reported as 101%.
CN(C)CC[C@@H](c1ccc(Cl)cc1)c1ccccn1 has a viability of 104%.
O=C(O)c1cc(/N=N/c2ccc(S(=O)(=O)Nc3ccccn3)cc2)ccc1O has a viability of 103%.
O=C(O)c1cc(-c2ccc(F)cc2F)ccc1O has a viability of 101%.
c1ccc2[nH]c(-c3cscn3)nc2c1 gave a viability of 98.7%.
C[C@]12CC[C@H]3[C@@H](CCC4=CC(=O)CC[C@@]43C)[C@@H]1CC[C@@H]2O gave a viability of 98.6%.
The viability of C=CC[C@@H]1/C=C(\C)C[C@H](C)C[C@H](OC)[C@H]2O[C@@](O)(C(=O)C(=O)N3CCCC[C@H]3C(=O)O[C@H](/C(C)=C/[C@@H]3CC[C@@H](O)[C@H](OC)C3)[C@H](C)[C@@H](O)CC1=O)[C@H](C)C[C@@H]2OC is reported as 105%.
With Cc1cc(C)nc(NS(=O)(=O)c2ccc(N)cc2)n1 the viability was 103%.
The viability of O=C(O)c1ccc(-n2nc(-c3ccccc3O)nc2-c2ccccc2O)cc1 is reported as 89.9%.
With CC(C)(Oc1ccc(C(=O)c2ccc(Cl)cc2)cc1)C(=O)O the viability was 96.2%.
Nc1nc2c(ncn2COCCO)c(=O)[nH]1 has a viability of 101%.
The viability of CC(C)C(=O)Oc1ccc(CO)cc1[C@H](CCN(C(C)C)C(C)C)c1ccccc1 is reported as 99.7%.
With C[C@]12CC[C@H]3[C@@H](CC[C@@]45O[C@@H]4C(O)=C(C#N)C[C@]35C)[C@@H]1CC[C@@H]2O the viability was 97.6%.
The viability of Nc1ccc(S(=O)(=O)NC(=O)c2ccccc2)cc1 is reported as 100%.
CCOC(=O)[C@H](CCc1ccccc1)N[C@@H](C)C(=O)N1Cc2ccccc2C[C@H]1C(=O)O has a viability of 99.4%.
The viability of OC(c1cc(C(F)(F)F)nc2c(C(F)(F)F)cccc12)C1CCCCN1 (stereo not drawn) is reported as 94.2%.
For CC[C@@H](CO)NCCN[C@@H](CC)CO, the viability was 98.1%.
For CCc1nc(N)nc(N)c1-c1ccc(Cl)cc1, the viability was 95.5%.

Repeated from above (study 4):
CCOC(=O)[C@H](CCc1ccccc1)N[C@@H](C)C(=O)N1Cc2ccccc2C[C@H]1C(=O)O has a viability of 99.4%.
C[C@]12CC[C@H]3[C@@H](CCC4=CC(=O)CC[C@@]43C)[C@@H]1CC[C@@H]2O gave a viability of 98.6%.
With C[C@]12CC[C@H]3[C@@H](CC[C@@]45O[C@@H]4C(O)=C(C#N)C[C@]35C)[C@@H]1CC[C@@H]2O the viability was 97.6%.
The viability of Nc1ccc(S(=O)(=O)NC(=O)c2ccccc2)cc1 is reported as 100%.
Nc1nc2c(ncn2COCCO)c(=O)[nH]1 has a viability of 101%.
